Published values collected from several papers.
Several values in a cell are separate wells, animals, samples, runs or records. ± marks the error that the study gave.

| Structure (SMILES) | host | medium | route | dose | time | notes | Cmin |
| --- | --- | --- | --- | --- | --- | --- | --- |
| C[C@@H]1CCO[C@H]2Cn3cc(C(=O)NCc4ccc(F)cc4F)c(=O)c(O)c3C(=O)N12 | human, normal renal function | plasma | oral | dose not given |  | steady state, fixed-dose combination | 1.3 µg/mL |
| O=C(O)CCC(=O)O.[2H]C([2H])([2H])Oc1cc(C)c2[nH]ccc2c1CN1CC[C@@H](C2CC2)C[C@H]1c1ccc(C(=O)O)cc1 | human | plasma |  | 125 mg twice daily | day 10 | multiple ascending dose, geometric mean | 2.85 µg/mL |
| O=C(O)CCCCCCCCCCC(=O)O | human | plasma |  |  |  | endogenous baseline diurnal | 0.0181 ± 0.0026 µM |
| CCOc1c([C@H](C)n2nc(C)c3c(N)ncnc32)cc(Cl)c(F)c1[C@@H]1CNC(=O)C1 | human patients | plasma | oral | 30 mg | day 15 | all cohorts | 0.343 ± 0.203 µM |
| Cc1ncnc2c1ccn2[C@@H]1C[C@H](Oc2cc(C(F)F)c(F)c3c2CNCC3)[C@@H](O)[C@H]1O | human | plasma |  | 0.5 mg once daily |  |  | 0.000971 µg/mL |
| Cn1cc(-c2cn3nccc3c(-c3cnn([C@]4(CC#N)C[C@@H](C#N)C4)c3)n2)cn1 | healthy humans fed | plasma |  | 1200 mg once daily | day 10 | geometric mean | 0.0623 µg/mL |
| CCN(CCO)CCCC(C)Nc1ccnc2cc(Cl)ccc12 (stereo not shown) | human | whole blood | oral | 800 mg |  |  | 1.53 µg/mL and 1.9 µg/mL |
| O=C(O)CCCCCCCCCCCCCCCCC(=O)O | human | plasma |  |  |  | endogenous baseline diurnal | 0.0612 ± 0.004 µM |
| C[C@@H]1CCO[C@H]2Cn3cc(C(=O)NCc4ccc(F)cc4F)c(=O)c(O[C@@H]4O[C@H](C(=O)O)[C@@H](O)[C@H](O)[C@H]4O)c3C(=O)N12 | human, haemodialysis patients | plasma |  | dose not given |  | steady state | 0.8 µg/mL |
| CC(C)CCC[C@@H](C)[C@H]1CC[C@H]2[C@@H]3C(O)CC4=CC(=O)CC[C@]4(C)[C@H]3CC[C@]12C (stereo partly shown) | human | plasma | oral | dose not given |  | control | 0.0389 ± 0.006 µM |
| CCCCOCCOc1ccc(-c2ccc3c(c2)/C=C(/C(=O)Nc2ccc([S@@+]([O-])Cc4cncn4CCC)cc2)CCCN3CC(C)C)cc1 | human, matched controls (mild impairment) | plasma | oral | 150 mg | day 1 |  | 0.094 µg/mL |
| C[C@H](CCC(=O)NCC(=O)O)[C@H]1CC[C@H]2[C@@H]3CC[C@@H]4C[C@H](OS(=O)(=O)O)CC[C@]4(C)[C@H]3CC[C@]12C | human | plasma |  |  |  | baseline | 0.396 ± 0.105 µM |
| Fc1ccc([C@@H]2CCNC[C@H]2COc2ccc3c(c2)OCO3)cc1 | human, CYP2D6 poor metabolizers | plasma | oral | 20 mg |  | steady state | 0.026 µg/mL |

Repeated from above:
| Structure (SMILES) | host | medium | route | dose | time | notes | Cmin |
| --- | --- | --- | --- | --- | --- | --- | --- |
| O=C(O)CCC(=O)O.[2H]C([2H])([2H])Oc1cc(C)c2[nH]ccc2c1CN1CC[C@@H](C2CC2)C[C@H]1c1ccc(C(=O)O)cc1 | human | plasma |  | 125 mg twice daily | day 10 | multiple ascending dose, geometric mean | 2.85 µg/mL |
